Published values from different studies.
Parts stem from different laboratories: compare values within a part only. Substitutions count along the parent as printed.

Sample 1 — technique: RNA Bind-n-Seq; form: RNA; sample: in vitro; concentration: 200 nM; setting: whole 134-nt RNA, ends assumed; with: 150 mM KCl; relative to: input library; reading: higher = stronger binding
Target: Fragile X messenger ribonucleoprotein 1, C-terminal low-complexity region (Fmr1, Mus musculus, UniProt P35922)
All sequences stand within: GGGAGUUCUACAGUCCGACGAUC … UGGAAUUCUCGGGUGUCAAGG
| Oligonucleotide | log2 enrichment |
| --- | --- |
| GUCCUGUGCUACACAUCGUAUGUACCGAAUCGGGGUGGGGAAAGGGGAAAAAAAGGGGAAAGUAUUAUGUUACGCCGUUCGGAUCUGCAC | 0.428 |
| CCUCAAGUCCUGUGCUACACAUCGUAUGUACCGAAUCGGGUGGGGUGGUGGGGAAAGUAUUAUGUUACGCCGUUCGGAUCUGCACUUCCA | 1.24 |
| AGUCCUGUGCUACACAUCGUAUGUACCGAAUCGGGGUUUUUGGGGAGGGGUUUGGGGAAAGUAUUAUGUUACGCCGUUCGGAUCUGCACU | 0.685 |
| UAACUUUAGAGGAGGAUCUGAUGGAUAUGGCAGUGGACGUGGAUUUGGGGAUGGCUAUAAUGGGUAUGGAGGAGGACCGGGAGGUGGCAA | 0.195 |
| UCUCCCCAGGAGCACAGAAAAUGGUUCUGCCCCCUCCACAGCUCCCACAGACCAGAGCCGGCCACCGUUGGAGGUGAGUCGCCCGCCCCU | 0.634 |
| GUCCUGUGCUACACAUCGUAUGUACCGAAUCAAAUUUUUAAAUUUAAAUUUUUUUAAAAAAGUAUUAUGUUACGCCGUUCGGAUCUGCAC | -1.15 |
| UCAAGUCCUGUGCUACACAUCGUAUGUACCGAAUCGGAAAAAGGAAAGGUUUGGAAAGUAUUAUGUUACGCCGUUCGGAUCUGCACUUCC | -1.06 |
| GGAGGAAGUAAAAACAAAUGGAAAUGCUUCGGAUAGUGGCAGGGGUGGGGGUUGCUAAGGAAAGGGUGGGAUGGGAGUGGGUAAAGAGUU | 0.482 |
| CAAGUCCUGUGCUACACAUCGUAUGUACCGAAUCGGUGGAAAAAAAGGUUUUUGGAAAGUAUUAUGUUACGCCGUUCGGAUCUGCACUUC | -0.746 |
| UAUAUUGAGGUAUAGAGCUAUUCUUUGUAGGUACCCUGGUGAGACCGAUACAAAUAUGCCCCUCCCCAUAAUGGAAUACUAAUUUUUAUU | -0.497 |
| CUGUGCUACACAUCGUAUGUACCGAAUCGGGGAAAAAAAGGGAAAAAAAGGAAAAAAAGGGGAAAGUAUUAUGUUACGCCGUUCGGAUCU | -0.395 |
| UCCUGUGCUACACAUCGUAUGUACCGAAUCGGGGCCCCCGGCCCCCGGGGCCCCCGGGGAAAGUAUUAUGUUACGCCGUUCGGAUCUGCA | -0.989 |
| ACCAUGCAGGUGGGCAUCUAAAGGAAGUGGGGCAAGGGGGGGAUAGGGAGGGGGGUAACACUUUGGGAACAGGUGGUCCCAGGUCGUUUC | 0.875 |
| AGUCCUGUGCUACACAUCGUAUGUACCGAAUCGGUUUUUUUGGUUUUUUUGGUUUGGAAAGUAUUAUGUUACGCCGUUCGGAUCUGCACU | -0.847 |

Sample 2 — technique: RNA Bind-n-Seq; form: RNA; sample: in vitro; concentration: not given; relative to: input RNA pool; reading: higher = stronger binding
Target: RING finger protein unkempt homolog, zinc fingers 1-6, GST-SBP tag (UNK, Homo sapiens, UniProt Q9C0B0, residues 30-357)
Sequence of UniProt Q9C0B0 (30-357, looked up): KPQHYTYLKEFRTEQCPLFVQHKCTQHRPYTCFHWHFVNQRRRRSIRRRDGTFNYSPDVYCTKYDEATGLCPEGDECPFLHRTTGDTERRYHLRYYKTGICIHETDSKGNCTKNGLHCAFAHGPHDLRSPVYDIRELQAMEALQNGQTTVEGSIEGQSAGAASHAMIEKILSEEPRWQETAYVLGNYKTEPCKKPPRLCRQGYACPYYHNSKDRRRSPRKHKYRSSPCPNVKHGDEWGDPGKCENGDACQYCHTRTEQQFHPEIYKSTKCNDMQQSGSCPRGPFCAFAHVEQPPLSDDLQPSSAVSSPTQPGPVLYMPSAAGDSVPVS
Setting: RNA with constant flanks, human-mouse chimeric sites, ends assumed
All sequences stand within: GGGAGUUCUACAGUCCGACGAUC … CAACAGAGGAUUGAGCAUCA
| Oligonucleotide | bound/input enrichment [ratio] |
| --- | --- |
| ACCAUUUUCGCGGUUCAGGCUUUGUGUGUAGUUCACUUACGGUAUUAAAUUAUUAUUCUGCUUAGCUUAAAGUAAGGAUAAUUGCAUGAUUUAAGUAUACUGAAUGUUACUCUGAAACUU | 0.276 |
| AAAGAACCUCUCUCUGAUGAAGAUGAGGAAGACAAUGAUGAUGUUGAACCCAUUUCUGAAUUUCGAUUUGUGCCUAGUGAUAAGUCAGCAUUGGAGGCGAUGUUCACUGCAAUGUGCGAG | 0.262 |
| AGAGAUAAGACAUCCAGGAACAUGCGAGGCUCCCGGAUGAAUGGGUUGCCUAGCCCCACUCACAGCGCCCACUGUAGCUUCUACCGAACCAGAACCUUGCAGGCAUUGAGUAAUGAGAAG | 0.144 |
| GUACUGCAGCAGCAGGGAAAACUGCAGGAAGCACUGAUGCAUUAUAAAGAAGCCAUACGAAUCAGUCCUACCUUUGCUGAUGCCUACUCUAAUAUGGGAAACACUCUAAAGGAGAUGCAG | 0.334 |
| GUGACUGGUGUUAAGAUUUACCCUCAGCAAAGAAGUGCAGUAGUCACCAUAAUUCCAUCUGUGGUGAGUGCCAGUCAGAUUGUGGAGCUGGUCCCAGACCUCAGUUUAGACAUGGGAACU | 0.243 |
| GGUGGGGUGGUCAUUGCGCCAAUUGAGGCUGAUUUUCAUGAGUCGCCUUCAAAACUCUCGUGUAGGGUUGACACUGUGGGGGGGUGGGGGAUCCAGCUUAUUCUUUUAUUUUCAAGUCCA | 0.694 |
| GCCACCAGAUCCCAGAAACAUGACUCUUGCAGCCUAUAAAGAGAAGAUGAAGGAGCUCCCGCUGGUGUCCUUGUUCUGCUCCUGCUUCCUGGCCGAUCCCCUGAAUAAGUCGUCCUACAA | 0.278 |
| GCUCUUGGGAAUGUAAUCAGCGCCUUGGGGGACAAGAGCAAGAGAGCCACACAUGUCCCUUACAGAGACUCUAAGCUGACAAGACUCUUGCAGGAUUCCCUUGGGGGUAAUAGCCAAACC | 0.133 |
| GCGGCAGAAUCAUGGAGGACAUGAUGGAGCUCCCCAAAGCGCGCGUCAACGCCAGCAUGUUACCACAGUAUAUCGACCGGCCCGUGUGCUUCGUGGGGAGGCUGGAAAAGAUUCAUCCCA | 0.169 |
| GUUGCCAGCUUCCGGUUCCGUUGGGCUCGGUUCUCUCAGUGCUACGUUGUCUCUACGCUCUCAAUCCGCCAUCCAACGGCAGUCAUGCAGGUAAUGCAGUUUGUGGAGCCCAGCCGGCAG | 0.109 |
| GAUAAGAAAAGCUUGUUGGAGACCCGCUUGCAUGUCACUGGCAGAGACCUGAGGUGUCAAAUAGCUGAAACUUUCGGACUUCAAGAAAAUUACAUCAAGAUCGUAAUAAAUAAGAAACAG | 0.326 |

Sample 3 — technique: DHFR PCA, deep sequencing; sample: yeast; with: (+)-ABA 710 µM; relative to: wild-type fitted maximum; reading: higher = stronger binding
Target: ABI1, truncated, D143A, DHFR fusion (Arabidopsis thaliana)
Setting: methotrexate growth selection, single substitutions
Starting sequence: PYL1, truncated, DHFR fusion (Arabidopsis thaliana); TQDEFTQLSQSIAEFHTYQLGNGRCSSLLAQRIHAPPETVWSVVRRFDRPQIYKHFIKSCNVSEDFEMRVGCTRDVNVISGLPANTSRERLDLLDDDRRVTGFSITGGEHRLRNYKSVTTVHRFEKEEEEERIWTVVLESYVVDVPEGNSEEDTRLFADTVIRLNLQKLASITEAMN; partner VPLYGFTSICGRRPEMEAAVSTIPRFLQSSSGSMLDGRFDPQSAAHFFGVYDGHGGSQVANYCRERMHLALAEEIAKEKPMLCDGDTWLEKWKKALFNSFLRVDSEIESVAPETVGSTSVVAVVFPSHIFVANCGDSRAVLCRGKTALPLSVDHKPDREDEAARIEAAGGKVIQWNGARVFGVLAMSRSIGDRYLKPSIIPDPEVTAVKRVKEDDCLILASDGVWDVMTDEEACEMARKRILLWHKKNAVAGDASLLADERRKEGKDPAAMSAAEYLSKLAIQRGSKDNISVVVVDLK
| Variant | relative binding score [%] |
| --- | --- |
| S117P | 9.14 |
| L29Y | 69.6 |
| Q10F | 97.1 |
| L169N | 8.27 |
| V145C | 93.8 |
| P37K | 68.8 |
| E125I | 106 |
| L112F | 89.2 |
| S80K | 78.9 |
| E147R | 94.2 |
| L91D | 17.4 |
| P146W | 50.7 |
| L164S | 102 |
| M68G | 98.4 |
| T1H | 98.7 |
| G148R | 87.4 |
| L28E | 14.1 |
| V100K | 51.4 |
| A13Q | 86 |
| Q10M | 94.6 |
| A30Q | 108 |
| S80W | 67.9 |

Sample 4 — target: CEBPD, bZIP domain (human); technique: DHFR protein complementation; sample: yeast; relative to: wild-type JUN-FOS pair; reading: higher = stronger binding
Setting: single substitutions, most at no-binding floor
Starting sequence: JUN, bZIP domain (human); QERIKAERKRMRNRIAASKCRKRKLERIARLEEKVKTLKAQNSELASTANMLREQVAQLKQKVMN; partner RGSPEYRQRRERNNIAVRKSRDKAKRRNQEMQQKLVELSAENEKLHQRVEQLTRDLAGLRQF
| Variant | binding fitness [natural log] |
| --- | --- |
| E44P | -1.46 |
| N42D | -1.49 |
| A46K | -1.25 |
| E32S | -1.37 |
| V56C | -1.39 |
| E54I | -1.39 |
| A46Q | -1.42 |
| L52N | -1.36 |
| R30C | -1.37 |
| K34N | -1.36 |
| L52V | -1.39 |
| T37F | -1.34 |
| L38G | -1.48 |
| L52M | -1.45 |
| K36N | -1.25 |
| E33V | -1.47 |
| K39W | -1.49 |

Sample 5 — target: CCNB3, cyclin fold, Cln2 fusion (human); technique: yeast growth competition, sequencing; sample: yeast; setting: weak parent motif; relative to: not given; reading: higher = stronger binding
Starting sequence: SGO1 docking peptide (human); PLAKRALKYTDEK
| Variant | normalised enrichment score |
| --- | --- |
| ALAKRALKYTDEK [P1A] | -0.0263 |
| PLAKRALKYTDAK [E12A] | 0.204 |
| PLAKRAAKYTDEK [L7A] | 0.181 |
| PLAKRALAYTDEK [K8A] | 0.308 |
| PAAKRALKYTDEK [L2A] | 0.165 |

Sample 6 — technique: protein binding microarray; form: double-stranded DNA, one strand shown; sample: in vitro; concentration: not given; relative to: not given; reading: higher = stronger binding
Target: Histone acetyltransferase KAT6A, winged helix 2, GST fusion (KAT6A, Homo sapiens, UniProt Q92794, residues 85-181)
Setting: 8-mer, flanks averaged, mean of 2 arrays, mostly near background
Target sequence (chain): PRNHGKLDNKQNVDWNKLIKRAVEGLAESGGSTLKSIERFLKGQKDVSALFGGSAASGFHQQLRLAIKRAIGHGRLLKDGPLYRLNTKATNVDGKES
| Oligonucleotide | E-score |
| --- | --- |
| GAATCTGC | 0.0433 |
| CAAATCTA | -0.0745 |
| CTTCGCCC | 0.00847 |
| GAGATCAA | 0.0262 |
| CATCAGTC | -0.222 |
| CCAGAGTC | 0.0192 |
| CGAGTCCA | -0.175 |
| AAGGAAGC | -0.137 |
| ATTGAGTC | -0.0863 |
| GGTGTTAC | -0.094 |
| CATATTAG | -0.0278 |
| CATAACCC | -0.221 |
| AGGGTGTC | 0.0809 |
| GAGAATAC | 0.0202 |
| ATGTTCGC | -0.0438 |
| GTAATCAA | 0.0711 |
| TTCTTCAA | 0.175 |
| GTGACACA | 0.0773 |
| ATAAGCGA | 0.0614 |
| AGGCAAAA | 0.0113 |
| AGAGGATC | -0.0413 |
| CGCCGTAG | 0.209 |
| ATTCTTCA | 0.0461 |
| AGAGGAAA | 0.221 |
| CTGGACGC | 0.104 |

Repeated from above (sample 4):
| Variant | binding fitness [natural log] |
| --- | --- |
| R30C | -1.37 |
| K34N | -1.36 |
| L52V | -1.39 |
| T37F | -1.34 |
| L38G | -1.48 |
| L52M | -1.45 |
| K36N | -1.25 |
| E33V | -1.47 |
